Results of several laboratories.
A part holds a random share of what one study measured. Positions count from the first letter of the parent shown.

Study 1
Target: ABI1, truncated, D143A, DHFR fusion (Arabidopsis thaliana)
Technique: DHFR PCA, deep sequencing
Matrix: yeast
Setting: methotrexate growth selection, single substitutions
Together with: (+)-ABA 0.0091 µM
Reference: wild-type fitted maximum
Reading: higher = stronger binding
Starting sequence: PYL1, truncated, DHFR fusion (Arabidopsis thaliana); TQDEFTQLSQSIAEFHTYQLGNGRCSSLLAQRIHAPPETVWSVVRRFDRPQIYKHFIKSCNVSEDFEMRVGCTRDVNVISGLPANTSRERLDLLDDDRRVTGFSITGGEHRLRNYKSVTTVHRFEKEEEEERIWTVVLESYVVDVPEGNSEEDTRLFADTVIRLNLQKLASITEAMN; partner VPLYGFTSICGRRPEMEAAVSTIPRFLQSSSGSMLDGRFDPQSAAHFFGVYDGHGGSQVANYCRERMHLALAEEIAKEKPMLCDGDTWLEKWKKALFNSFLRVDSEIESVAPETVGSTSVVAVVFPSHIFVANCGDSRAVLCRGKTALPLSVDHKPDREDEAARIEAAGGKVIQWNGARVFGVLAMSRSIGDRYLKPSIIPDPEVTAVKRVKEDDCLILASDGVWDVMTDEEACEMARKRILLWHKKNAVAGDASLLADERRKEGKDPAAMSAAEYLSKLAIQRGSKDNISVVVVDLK
Substitution | relative binding score
E130H | 39.9%
R99D | -7.91%
R90N | 7.08%
L169H | -2.11%
A35G | -2.12%
L156W | 0.882%
A30L | 12.1%
I52Y | 2.11%
Y115P | 3.63%
P146F | -2.68%
A175L | 5.13%
V118N | -3%
R24T | 8.61%
P83M | 5.51%
G21I | 3.38%
V70N | -3.85%

Study 2
Target: Histone acetyltransferase KAT6A, winged helix 1, GST fusion (KAT6A, Homo sapiens, UniProt Q92794, residues 1-85)
Technique: protein binding microarray
Form: double-stranded DNA, one strand shown
Matrix: in vitro
Tested at: not given
Setting: 8-mer, flanks averaged, mean of 2 arrays, mostly near background
Reference: not given
Reading: higher = stronger binding
Target sequence (chain): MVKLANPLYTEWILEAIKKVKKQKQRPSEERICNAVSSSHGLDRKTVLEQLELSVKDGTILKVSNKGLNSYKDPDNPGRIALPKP
Strand | E-score
ATACCCCC | -0.0241
ATAATGAC | 0.0947
TGCATGCA | -0.112
GTCCTCAA | -0.232
AGCCCGAT | -0.0222
CGAAAGTA | -0.0773
ACCGCATC | 0.289
CTGGGCTA | -0.132
AGGGACTA | -0.0456
AACCAAGG | -0.127
GACGAAAC | -0.0349
CGCCCGCC | 0.436
GTGCTCGA | -0.113

Study 3
Target: Interferon regulatory factor 7, full length, phosphomimetic (IRF7, Homo sapiens, UniProt Q92985, residues 1-503, S471D/S472D/S475D/S476D/S477D/S483D/S484D/S487D)
Chain of UniProt Q92985 (whole entry, unmodified, looked up): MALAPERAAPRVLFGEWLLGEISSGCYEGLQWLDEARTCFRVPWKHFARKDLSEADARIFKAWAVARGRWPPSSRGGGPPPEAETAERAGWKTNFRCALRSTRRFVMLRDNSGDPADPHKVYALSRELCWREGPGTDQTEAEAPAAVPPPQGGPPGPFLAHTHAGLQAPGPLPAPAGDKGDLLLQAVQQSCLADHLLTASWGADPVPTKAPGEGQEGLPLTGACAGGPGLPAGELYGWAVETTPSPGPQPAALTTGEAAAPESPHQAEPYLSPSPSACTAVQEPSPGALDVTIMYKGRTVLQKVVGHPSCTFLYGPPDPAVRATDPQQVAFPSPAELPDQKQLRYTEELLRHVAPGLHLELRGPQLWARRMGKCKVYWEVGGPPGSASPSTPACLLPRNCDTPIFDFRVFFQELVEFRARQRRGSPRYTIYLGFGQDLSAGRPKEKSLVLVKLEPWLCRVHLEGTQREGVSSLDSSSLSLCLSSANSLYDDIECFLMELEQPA
Technique: protein-binding microarray
Form: double-stranded DNA, one strand shown
Matrix: in vitro
Tested at: 2200 nM top
Setting: 60-bp whole probe
Together with: salmon DNA 0.4 mg/ml
Reference: random background probes
Reading: higher = stronger binding
Constant ends, left off below: GCCTAGCAC … GTCTTGATTCGCTTGACGCTGCTG
Strand | fitted relative affinity [z-score]
TTTCCTTTGCCTCTGAGGCTGTGCTAG | 6.12
TCAGTTTTCTTTTCCATACTGTGCTAG | 5.55
TCAACTTTTATTTTCAGACTGTGCTAG | 1.71
TTAGGTCTAGGTTTCGGTTAGTGCTAG | 4.98
GACGAACTGAGTATCGACACGTGCTAG | 0.1
GACGATCACAGACTGGAGACGTGCTAG | -0.139
GGACGGCAGTGCACACAGTGGTGCTAG | -0.94
AGGCATCTCGGAGATCTCGAAGTGCTA | -0.651
AATGATTGGTTGAACATGAAGTGCTAG | 0.0253
TTAGAACTGAGCCTCGATTAGTGCTAG | -0.461
GACGGTTTTGGGACTGGGGACGTGCTA | 0.574
TCATAGGTTTCACTTTCCACTGTGCTA | 6.37
GACGAATTGAGTCTCGAGACGTGCTAG | 0.00454
TCTCTTTCCTTACTTCCCAATGTGCTA | 3.58

Study 4
Target: CCNA1, cyclin fold, Cln2 fusion (human)
Technique: yeast growth competition, sequencing
Matrix: yeast
Setting: weak parent motif
Reference: not given
Reading: higher = stronger binding
Starting sequence: CDKN1B docking peptide (human); PSACRNLFGPVDH; partner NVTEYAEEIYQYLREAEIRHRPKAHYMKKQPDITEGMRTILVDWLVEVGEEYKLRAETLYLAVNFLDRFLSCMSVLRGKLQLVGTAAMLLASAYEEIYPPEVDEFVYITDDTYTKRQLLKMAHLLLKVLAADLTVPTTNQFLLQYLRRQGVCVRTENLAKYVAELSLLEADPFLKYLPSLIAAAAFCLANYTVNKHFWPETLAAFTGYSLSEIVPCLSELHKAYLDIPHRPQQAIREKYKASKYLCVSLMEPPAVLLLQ
Substitution | normalised enrichment score
SSACRNLFGPVDH [P1S] | 0.118
PSACRALFGPVDH [N6A] | 0.299
PLACRNLFGPVDH [S2L] | 0.451
PWACRNLFGPVDH [S2W] | 0.118
PMACRNLFGPVDH [S2M] | 0.109
GSACRNLFGPVDH [P1G] | 0.213
PSACRNLFGPVDV [H13V] | 0.2
PSAVRNLFGPVDH [C4V] | 0.073
PSACRNLFCPVDH [G9C] | 0.125
PSACRNLFGPVFH [D12F] | 0.423
KSACRNLFGPVDH [P1K] | 0.48
PSACRNLVGPVDH [F8V] | 0.0204
PSAWRNLFGPVDH [C4W] | 0.379
PSACSNLFGPVDH [R5S] | 0.0561

Some of these lines once more (study 4):
Substitution | normalised enrichment score
PWACRNLFGPVDH [S2W] | 0.118
PMACRNLFGPVDH [S2M] | 0.109
GSACRNLFGPVDH [P1G] | 0.213
PSACRNLFGPVDV [H13V] | 0.2
PSAVRNLFGPVDH [C4V] | 0.073
PSACRNLFCPVDH [G9C] | 0.125
